Assay results from different studies.
Lines come from different studies, so protocols differ.
Target: Tyrosine-protein kinase Blk (BLK, Homo sapiens, UniProt P51451)
Chain of UniProt P51451 (whole entry, unmodified, looked up): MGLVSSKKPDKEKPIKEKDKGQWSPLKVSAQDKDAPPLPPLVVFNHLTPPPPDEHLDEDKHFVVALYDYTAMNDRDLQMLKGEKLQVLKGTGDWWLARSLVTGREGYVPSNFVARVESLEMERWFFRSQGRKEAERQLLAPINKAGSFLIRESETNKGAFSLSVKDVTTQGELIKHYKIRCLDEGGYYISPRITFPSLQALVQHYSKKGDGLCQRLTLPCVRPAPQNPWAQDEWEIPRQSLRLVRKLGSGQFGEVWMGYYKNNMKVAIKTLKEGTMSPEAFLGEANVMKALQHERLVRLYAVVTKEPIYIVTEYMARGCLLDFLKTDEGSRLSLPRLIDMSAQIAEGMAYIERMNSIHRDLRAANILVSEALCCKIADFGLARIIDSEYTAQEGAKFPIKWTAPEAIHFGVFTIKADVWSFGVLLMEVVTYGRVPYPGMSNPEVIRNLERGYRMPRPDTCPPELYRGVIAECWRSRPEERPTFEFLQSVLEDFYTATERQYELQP

The remaining binding of CNC(=O)C1CCN(c2cc(C)c(F)cc2NC(=O)c2ccc(-c3cc(O)ccc3C)c(C)c2)CC1 is reported as 0.25% (binding, competition with immobilised ligand; 1 µM).
C[C@H]1CN(C(=O)c2cn(-c3ccnc(N)n3)c3cc(C#CC4(O)CCCCC4)ccc23)CCN1 gave an inhibition of -2% (enzyme activity, inhibitor, FRET; 1 µM).
With Cc1cc(NC(=O)[C@H](O)c2cc(F)cc(F)c2)ccc1-c1cnc(N)c(C(=O)NC(C)C)c1 the remaining binding was 100% (binding, competition with immobilised ligand; 10 µM).
CCn1cc(C(=O)O)c(=O)c2c(N)c(F)c(NC3CCCCC3)cc21 gave an inhibition of 6.9% (kinase activity; 0.1 µM, added: ATP at Km).
For Cc1ccc(-c2c(/C=C(\C#N)C(=O)NC(C)C)n(CCCO)c3ncnc(N)c23)cc1, the remaining binding was 64% (cell-free assay, competition with immobilised ligand; 1 µM).
CCN1CCN(Cc2ccc(C(=O)Nc3ccc(C)c(NCc4cnc5[nH]ccc5c4OC)c3)cc2C(F)(F)F)CC1 has a remaining binding of 0% (binding, competition with immobilised ligand; 1 µM).
With Nc1ncc2c(n1)-c1c([nH]c3ccc(C4=CCOCC4)cc13)CCC2 the remaining binding was 100% (binding, competition with immobilised ligand; 1 µM).
For CC(C)=CC1OC(C)(C)C2C=C3C(=O)C(Cl)=CC(O)C3C3C(O)C4OC4C(=O)C132 (stereo not drawn), the remaining binding was 93% (cell-free assay, competition with immobilised ligand; 10 µM).
COc1cc(Nc2nc(C)cc(-c3cnn4nc(OC)ccc34)n2)cc(C(F)(F)F)c1 gave a remaining activity of 100% (inhibitor; 1 µM; reference: control).
CN1CCN(Cc2ccc(-c3ccc(CO[C@H]4CCC[C@@H]4NC(=O)c4cc(-c5cnn(C)c5)cnc4N)cc3)cc2)CC1 gave an inhibition of 0% (enzyme activity, inhibitor; 0.1 µM).
The inhibition of C=CC(=O)Nc1cccc(-c2cnc3[nH]cc(C(=O)NC(C)(C)C)c3n2)c1 is reported as 29% (enzyme activity, inhibitor; 0.1 µM).
Under “activity vs control”, O=C(Cc1ccc(OCc2ccccc2)cc1)NC1(C(=O)O)CCN(C(=O)c2ccc(-c3cccc(Cl)c3)cc2)CC1 is recorded as 117% (enzyme activity, inhibitor; 10 µM).
Cc1cccc(O[C@H]2CCC[C@@H](C(C)CNCc3ccncc3)C2)c1 (relative stereo) gave an inhibition of 0% (enzyme activity, inhibitor; 1 µM).
NC(=O)C[C@H]1CCc2sc3ncnc(O[C@H]4CC[C@H](N5CCOCC5)CC4)c3c21 gave an inhibition of 12% (enzyme activity, inhibitor; 10 µM).
Cc1cnc2nc1Nc1cccc(c1)COC/C=C/COCc1cc(ccc1OCCN1CCOCC1)N2 has a remaining binding of 41% (binding; 0.1 µM).

Some of these lines once more:
Cc1cnc2nc1Nc1cccc(c1)COC/C=C/COCc1cc(ccc1OCCN1CCOCC1)N2 has a remaining binding of 41% (binding; 0.1 µM).
CN1CCN(Cc2ccc(-c3ccc(CO[C@H]4CCC[C@@H]4NC(=O)c4cc(-c5cnn(C)c5)cnc4N)cc3)cc2)CC1 gave an inhibition of 0% (enzyme activity, inhibitor; 0.1 µM).
